Assay results pooled from the literature.
Protocols differ between the studies behind these lines. Numbers after ± are the reported error. Values after ≈ are worked out from the molar mass of the structure shown.
Sequence of UniProt Q8TCC7 (whole entry, looked up): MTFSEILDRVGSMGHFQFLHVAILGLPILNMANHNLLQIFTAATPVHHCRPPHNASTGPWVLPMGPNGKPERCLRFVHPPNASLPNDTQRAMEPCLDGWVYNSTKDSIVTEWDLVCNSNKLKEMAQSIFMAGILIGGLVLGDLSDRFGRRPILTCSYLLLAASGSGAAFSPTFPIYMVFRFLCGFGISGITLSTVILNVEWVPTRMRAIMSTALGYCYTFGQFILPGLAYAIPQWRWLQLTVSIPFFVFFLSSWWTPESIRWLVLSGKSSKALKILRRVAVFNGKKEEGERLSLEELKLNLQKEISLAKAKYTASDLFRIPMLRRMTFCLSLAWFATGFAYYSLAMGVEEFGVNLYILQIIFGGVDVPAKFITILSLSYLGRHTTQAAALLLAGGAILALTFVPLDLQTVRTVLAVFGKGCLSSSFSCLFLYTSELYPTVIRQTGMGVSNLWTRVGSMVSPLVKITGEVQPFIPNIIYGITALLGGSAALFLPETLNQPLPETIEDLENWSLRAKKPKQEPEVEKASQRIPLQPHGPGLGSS
Sequence of UniProt P00760 (whole entry, looked up): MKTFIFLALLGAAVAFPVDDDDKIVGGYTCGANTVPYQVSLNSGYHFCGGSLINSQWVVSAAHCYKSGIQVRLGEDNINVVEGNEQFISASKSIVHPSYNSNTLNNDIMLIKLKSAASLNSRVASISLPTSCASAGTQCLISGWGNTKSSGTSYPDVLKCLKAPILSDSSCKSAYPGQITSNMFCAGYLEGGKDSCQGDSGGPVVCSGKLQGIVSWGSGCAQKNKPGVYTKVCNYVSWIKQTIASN
Sequence of UniProt Q9Y6L6 (whole entry, looked up): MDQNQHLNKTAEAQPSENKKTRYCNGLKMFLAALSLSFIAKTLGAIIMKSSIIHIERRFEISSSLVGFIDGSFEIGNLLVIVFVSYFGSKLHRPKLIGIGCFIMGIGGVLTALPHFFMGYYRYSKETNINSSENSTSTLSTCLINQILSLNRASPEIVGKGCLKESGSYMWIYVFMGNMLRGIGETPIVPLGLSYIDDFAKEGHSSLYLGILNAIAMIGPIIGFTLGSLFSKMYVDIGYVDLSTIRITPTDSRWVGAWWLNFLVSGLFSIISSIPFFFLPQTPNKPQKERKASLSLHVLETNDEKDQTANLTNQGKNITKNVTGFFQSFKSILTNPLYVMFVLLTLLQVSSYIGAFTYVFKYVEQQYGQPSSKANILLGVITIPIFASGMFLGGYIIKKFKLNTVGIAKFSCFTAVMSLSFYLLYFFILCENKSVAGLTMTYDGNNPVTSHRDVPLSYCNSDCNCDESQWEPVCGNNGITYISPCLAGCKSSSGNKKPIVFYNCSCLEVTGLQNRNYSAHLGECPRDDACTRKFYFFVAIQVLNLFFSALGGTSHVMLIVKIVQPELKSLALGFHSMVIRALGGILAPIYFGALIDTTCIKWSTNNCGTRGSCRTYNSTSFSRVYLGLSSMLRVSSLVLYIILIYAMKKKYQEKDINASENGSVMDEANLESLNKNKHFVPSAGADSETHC

| Structure (SMILES) | tested on | test | system | conditions | how to read | quantity | result |
| --- | --- | --- | --- | --- | --- | --- | --- |
| Nc1ccccc1C(=O)OCC#CCOC(=O)c1ccccc1N | THLE-2 | MTT | – | 72 h | – | IC50 | > 50 µM |
| COc1cc2c(cc1NC(=O)c1cncn1C)C[C@H]1[C@H]3CCCC[C@@]23CCN1C | – | – | Caco-2 | 10 µM, pH 6.5 | – | Papp A→B | 9.71 ×10⁻⁶ cm/s |
| O=C1NC2(CC2)COc2ncc(F)cc2[C@H]2COCCN2c2ccn3ncc1c3n2 | – | – | Sprague-Dawley rats, male, blood | oral, 2.5 mg/kg/day, end of treatment, 4-week subacute toxicity | – | basophil percentage | 0.07 ± 0.07% |
| CC[C@H](C)[C@H](NC(=O)[C@H](CCCCN)NC(=O)CNC(=O)[C@H](CC(C)C)NC(=O)[C@H](Cc1ccccc1)NC(=O)[C@H](CCCCN)NC(=O)[C@H](CO)NC(=O)[C@H](Cc1ccccc1)NC(=O)[C@H](Cc1c[nH]c2ccccc12)NC(=O)[C@H](CCC(N)=O)NC(=O)[C@@H](NC(=O)[C@H](Cc1ccccc1)NC(=O)CCCCCNC(=O)CN1CCN(CC(=O)O)CCN(CC(=O)O)CCN(CC(=O)O)CC1)C(C)C)C(=O)N[C@@H](CCC(=O)O)C(=O)N1CCC[C@H]1C(=O)N[C@@H](CC(=O)O)C(=O)N[C@H](C(=O)N[C@@H](CO)C(=O)N[C@@H](CCC(N)=O)C(=O)N[C@H](C(=O)N[C@@H](CCC(N)=O)C(=O)N[C@@H](CC(=O)O)C(=O)N1CCC[C@H]1C(=O)N[C@@H](CC(N)=O)C(=O)N[C@@H](CC(=O)O)C(=O)N[C@@H](CCC(N)=O)C(=O)N[C@@H](Cc1ccc(O)cc1)C(=O)N[C@@H](CCC(=O)O)C(=O)N1CCC[C@H]1C(=O)N[C@@H](Cc1ccccc1)C(=O)O)C(C)C)C(C)C [copper-64 labelled] | – | – | C57BL/6 mice, male, naive, white fat | 2 h | – | tissue uptake | 0.47 ± 0.1 %ID/g |
| COc1ccc(-n2cc(C(=O)N3C[C@]4(OC(=O)c5ccccc5NC(C)=O)CC[C@H](OC)[C@@]56[C@@H]4C[C@@H]([C@@H]35)[C@@]3(O)C[C@H](OC)[C@H]4C[C@@H]6[C@]3(O)[C@H]4OC)nn2)cc1 | – | – | rat Sprague-Dawley, plasma | intravenous, 2 mg/kg | – | Vss | 14.4 L/kg |
| CC(C)C[C@H](NC(=O)[C@H](CC(C)C)NC(=O)[C@H](CCCCN)NC(=O)[C@H](Cc1ccccc1)NC(=O)[C@@H](NC(=O)[C@H](CCCNC(=N)N)NC(=O)[C@@H](N)CCCCN)C(C)C)C(=O)N[C@@H](CCCCN)C(=O)N[C@@H](CCCNC(=N)N)C(=O)N[C@@H](Cc1ccc(O)cc1)C(=O)N[C@@H](Cc1c[nH]c2ccccc12)C(=O)N[C@@H](CCCNC(=N)N)C(=O)N[C@@H](CCC(N)=O)C(=O)N[C@@H](CC(C)C)C(=O)N[C@@H](CCCCN)C(=O)N[C@@H](CCCCN)C(=O)N1CCC[C@H]1C(=O)N[C@H](C(=O)N[C@@H](CCCNC(=N)N)C(=O)NCCOCCOCC(=O)O)C(C)C | Serine protease 1 (PRSS1, Bos taurus, UniProt P00760) | HPLC | – | 1 mg/mL, 6 h, 37 °C, added: enzyme to peptide 50:1 | – | intact peptide remaining | 20 to 24% |
| NC[C@]1(CC(=O)O)CC[C@@H]([18F])CC1 | – | PET | rhesus monkey, brain | intravenous, 3.8 min, baseline scan | – | initial peak SUV | 0.4 |
| CC(=O)NCCCC[C@@H]1NC(=O)[C@H](Cc2c[nH]c3c(C)cccc23)NC(=O)[C@H]([C@@H](C)O)NC(=O)[C@H](CC(N)=O)NC(=O)[C@@H](NC(C)=O)C(C)(C)SSC(C)(C)[C@@H](C(=O)N[C@@H](Cc2ccc(OCCN)cc2)C(=O)N[C@@H](Cc2ccc3ccccc3c2)C(=O)NC2(C(=O)N[C@@H](CCC(=O)O)C(=O)N[C@@H](CC(N)=O)C(=O)N[C@@H](Cc3cccnc3)C(=O)N(C)CC(N)=O)CCOCC2)NC1=O | Organic anion transporter 3 (SLC22A8, Homo sapiens, UniProt Q8TCC7) | substrate | MDCK-II cells, transfected | 5 µM, 30 min, added: probenecid 300 µM | – | uptake rate | 0.532 ± 0.044 pmol/mg/min |
| CCc1nnc(NS(=O)(=O)c2ccc(NC(=O)c3cccc4ccccc34)cc2)s1 | Cytochrome P450 2D6 (CYP2D6, Homo sapiens, UniProt P10635) | – | – | 10 µM | – | inhibition | < 10% |
| Cc1cc(/C=C/C#N)cc(C)c1Oc1nc(NC2CCN(Cc3ccc(S(C)(=O)=O)cc3)CC2)nc2ncccc12 | HIV-1 | – | MT4, IIIB wild type | – | relative to: CC50 over EC50 | selectivity index | 15000 |
| CC1(C)CC(=O)C2=C(C1)Oc1ccccc1C2C1C(=O)NC(=O)NC1=O (centres unmarked) | 3T3-L1 mature adipocytes | MTT | – | IC20, 6 days, lipolysis conditions | relative to: untreated | viability | 81.2% |
| Cc1cc(-c2ccc3ccccc3c2)nnc1NCCN1CCN(C)CC1 | Solute carrier organic anion transporter family member 1B1 (SLCO1B1, Homo sapiens, UniProt Q9Y6L6) | transporter uptake, inhibitor | – | 10 µM | – | inhibition | 3% |
| CC1(F)CN(C(=O)Cn2c(=O)c(C(=O)NCc3ccc(Cl)cc3)cc3nc(N4CCN(CCN)C4=O)cnc32)C1 | herpes simplex virus 1 | cytopathic effect | – | – | relative to: CC50 over EC50 | selectivity index | > 21.4 |
| CC[C@H](C)[C@H](NC(=O)[C@H](CC(=O)O)NC(=O)[C@@H](NC(=O)[C@@H]1CCCN1C(=O)[C@@H](N)CCCNC(=N)N)[C@@H](C)O)C(=O)N[C@@H](CCCCN)C(=O)N[C@H]1CSSC[C@@H]2NC(=O)[C@H](CCCNC(=N)N)NC(=O)CNC(=O)[C@H](CC(N)=O)NC(=O)[C@H]([C@@H](C)O)NC(=O)[C@H](CCCCN)NC(=O)CNC(=O)[C@H](Cc3ccccc3)NC(=O)[C@H](CCCNC(=N)N)NC(=O)[C@H](CO)NC(=O)[C@H](CCCCNC(=O)OCc3cc(OC)c(OC)cc3[N+](=O)[O-])NC(=O)[C@@H]3CSSC[C@@H](C(=O)N[C@@H](Cc4ccccc4)C(=O)O)NC(=O)[C@H](CC(=O)O)NC(=O)[C@H](CSSC[C@H](NC(=O)[C@H](CCC(N)=O)NC(=O)[C@H](Cc4ccc(O)cc4)NC(=O)[C@H](CO)NC(=O)[C@H](CCC(=O)O)NC(=O)[C@H](CO)NC1=O)C(=O)N[C@@H](Cc1ccccc1)C(=O)N1CCC[C@H]1C(=O)N[C@@H](C(C)C)C(=O)N3)NC(=O)[C@H](Cc1ccccc1)NC(=O)CNC(=O)[C@H](CC(N)=O)NC(=O)[C@H](C(C)C)NC2=O | – | – | rat, anaesthetised | intravenous, 350 µg/kg, illumination 365 nm 75 mW/cm2, 10 min, right atrium | relative to: control | RR interval change | 15.9 ± 2.9 ms |
| O=C(O)CCCOc1ccc(O)cc1-c1cc(-c2ccccc2C(F)(F)F)n(-c2ccccc2)n1 | Salmonella typhimurium | Ames test | TA1537 | concentration not given, with S9 metabolic activation | – | growth-inhibiting concentration | ≥ 1250 µg/plate |
| Cc1nc2cccc(OCC(C)(C)C(=O)NC(C)C)c2c(N)c1C(=O)[O-].[Na+] | Salmonella typhimurium | Ames preincubation | TA1535 | 0.80 mg/plate, added: without rat liver S9 | – | revertant colonies | 17 ± 8 colonies/plate |
| CC[C@H](C)[C@H](NC(=O)[C@H](CCCCN)NC(=O)[C@H](CCCCN)NC(=O)[C@H](Cc1ccccc1)NC(=O)[C@H](Cc1ccccc1)NC(=O)[C@H](CCCCN)NC(=O)[C@H](CCCCN)NC(=O)[C@H](Cc1ccccc1)NC(=O)[C@H](CCCNC(=N)N)NC(=O)[C@@H](N)CCCCN)C(=O)N[C@@H](CCCCN)C(=O)N[C@@H](CCCCN)C(=O)N[C@@H](CO)C(=O)N[C@H](C(=O)N[C@@H](CCCCN)C(=O)N[C@@H](CCCCN)C(=O)N[C@@H](CCCNC(=N)N)C(=O)N[C@H](C(=O)N[C@@H](CCCCN)C(=O)N[C@@H](CCCCN)C(=O)N[C@@H](CC(C)C)C(=O)N[C@@H](Cc1ccccc1)C(=O)N[C@@H](CCCCN)C(=O)N[C@@H](CCCCN)C(=O)N1CCC[C@H]1C(=O)N[C@@H](CCCNC(=N)N)C(=O)N[C@H](C(=O)N[C@H](C(=O)N1CCC[C@H]1C(=O)N[C@H](C(=O)N[C@@H](CO)C(=O)N[C@H](C(=O)N1CCC[C@H]1C(=O)N[C@@H](Cc1ccccc1)C(=O)O)[C@@H](C)CC)[C@@H](C)CC)[C@@H](C)CC)C(C)C)C(C)C)C(C)C | Pseudomonas aeruginosa | – | P1 | after heating at 60 °C | – | MIC | 4 µg/mL (≈ 0.948 µM) |

Excerpt of the above:
| Structure (SMILES) | tested on | test | system | conditions | how to read | quantity | result |
| --- | --- | --- | --- | --- | --- | --- | --- |
| COc1cc2c(cc1NC(=O)c1cncn1C)C[C@H]1[C@H]3CCCC[C@@]23CCN1C | – | – | Caco-2 | 10 µM, pH 6.5 | – | Papp A→B | 9.71 ×10⁻⁶ cm/s |
